Published values pooled from the literature.
Parts stem from different laboratories: compare values within a part only. Positions count from the first letter of the parent shown.

Series 1 — method: protein binding microarray; molecule type: double-stranded DNA, one strand shown; sample: in vitro; tested at: not given; baseline: not given; reading: higher = stronger binding
Target: Histone acetyltransferase KAT6A, both winged helices, GST fusion (KAT6A, Homo sapiens, UniProt Q92794, residues 1-181)
Setting: 8-mer, flanks averaged, mean of 2 arrays, mostly near background
Construct (chain): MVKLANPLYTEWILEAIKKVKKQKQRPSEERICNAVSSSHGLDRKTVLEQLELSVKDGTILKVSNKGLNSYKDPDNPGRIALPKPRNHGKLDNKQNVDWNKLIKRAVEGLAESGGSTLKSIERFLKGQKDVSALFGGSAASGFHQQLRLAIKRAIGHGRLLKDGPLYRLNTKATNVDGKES
`GGCATGCA` has an E-score of 0.0593.
With `CCCGAGAC` the E-score was 0.142.
The E-score of `ACTCTGAT` is reported as 0.071.
`GAGTACTC` gave an E-score of -0.0526.
`GATTTCAC` gave an E-score of -0.0245.
`CCACTAAG` gave an E-score of -0.167.

Series 2 — method: aptamer microarray, sandwich; molecule type: DNA with 2'F-ANA; sample: in vitro; tested at: 200 nM; together with: Cy3 exosite-II aptamer, 400 nM; reading: higher = stronger binding; strand: GGTTGGTGTGGTTGG
Target: Prothrombin, mature alpha-thrombin (F2, Homo sapiens, UniProt P00734)
Setting: whole 15-mer aptamer, many near background
For `2'F-ANA at 2 4 6 7 8 9 12 15`, “mean fluorescence intensity” read 522 a.u.
For `2'F-ANA at 2 5 8 12 13 14 15`, “mean fluorescence intensity” read 65.8 a.u.
`2'F-ANA at 1 5 11 13` — result for “mean fluorescence intensity”: 48 a.u.
`2'F-ANA at 1 3 6 7 8 12 13 14 15`: “mean fluorescence intensity” 132 a.u.
`2'F-ANA at 3 5 8 14`: “mean fluorescence intensity” 58.7 a.u.
For `2'F-ANA at 1 5 8 10 11 13 14`, “mean fluorescence intensity” read 46.2 a.u.
For `2'F-ANA at 1 2 3 4 5 10 15`, “mean fluorescence intensity” read 50.3 a.u.
`2'F-ANA at 1 6 7 9 12 13`: “mean fluorescence intensity” 229 a.u.
Under “mean fluorescence intensity”, `2'F-ANA at 1 2 5 6 8 9 13` is recorded as 60.4 a.u.

Series 3 — target: CCNE1, cyclin fold, Cln2 fusion (human); method: yeast growth competition, sequencing; sample: yeast; setting: weak parent motif; baseline: not given; reading: higher = stronger binding
Starting sequence: ORC1 docking peptide (human); PRARKRLELGNLG
For `R4D`, “normalised enrichment score” read 0.483.
`P1C`: “normalised enrichment score” 1.56.
`E8V` — result for “normalised enrichment score”: 1.22.
For `R2A`, “normalised enrichment score” read 0.541.
`P1G`: “normalised enrichment score” -0.416.
`N11I`: “normalised enrichment score” 0.166.
Under “normalised enrichment score”, `L7R` is recorded as 0.597.
Under “normalised enrichment score”, `G10C` is recorded as 0.696.

Further values, each from its own experiment
With `PhoQ, residues 284 288 289 292 302 303 AGCYAI` the fold induction was 9.7 (PhoP, residues 12 14 15 18 19 AGCRL (Escherichia coli, UniProt P23836); Sort-seq, refers to: YFP reporter; E. coli; PhoQ-PhoP variant library, together with: 10 µM Mg2+; baseline: high Mg2+ state, higher = stronger signaling).

For quick reference, copied from above (series 3):
Under “normalised enrichment score”, `L7R` is recorded as 0.597.
Under “normalised enrichment score”, `G10C` is recorded as 0.696.
`N11I`: “normalised enrichment score” 0.166.
